Results of several laboratories.
Lines come from different studies, so protocols differ. Several values in a cell are separate wells, animals, samples, runs or records. Numbers after ± are the reported error.

SMILES | target or system | test | system | setting | endpoint | result
O=C(N/N=C/c1cc[n+](Cc2ccccc2)c2ccccc12)c1cccc(C(=O)N/N=C/c2cc[n+](Cc3ccccc3)c3ccccc23)c1 | MYC parallel G4 DNA | FRET melting |  | 1 µM, DNA 0.2 µM | ΔTm | 6.5 ± 0.1 °C
O=S(=O)(c1cccc(-c2ccc3ncnc(Nc4ccc(OCc5cccc(F)c5)c(Cl)c4)c3c2)c1)N1CCCCC1 | Leishmania major | parasite growth, resazurin |  | promastigote | EC50 | > 15 µM
CCCCCC(=O)N[C@H](C(=O)N[C@@H](CCCC)C(=O)N[C@@H](CC(C)C)C(=O)[C@@]1(C)CO1)C(C)C | Trypanosoma brucei | parasite growth, SYBR Green |  | 72 h | EC50 | > 4 µM
Cc1ccc2c(c1)nc(NC(=O)c1cccc(C(F)(F)F)c1)n2[C@H]1CC[C@H](N)CC1 | Trypanosoma brucei brucei | growth inhibition, CellTiter-Glo | Lister 427 bloodstream form | 48 h | EC50 | 0.293 µM and 0.26 µM
CC1=C/C(=N\N=C(/S)Nc2cccnc2)CC(C)(C)C1 | Mus musculus | gene silencing, high-content imaging | LDR reporter GFP cells | confirmation, mean of two runs | EC50 | 3.16 µM
CCCCCC(=O)NC(CC(=O)N(CC)CC)C(=O)NC(Cc1ccc(F)cc1)C(=O)NC(Cc1ccc(F)cc1F)C(=O)C1(C)CO1 (stereo not shown) | Trypanosoma brucei | parasite growth, SYBR Green |  |  | EC50 | 0.157 µM
CC(C)n1ncc2c(C(=O)NCC3CN(C)C3)cc(C3CC3)nc21 | Enterovirus D68 | cytopathic effect | RD, US/MO/14-18947 |  | EC50 | 0.11 µM
Cc1ccc(N(C)C(=O)[C@H](Cc2ccccc2)NC(=O)Cc2c[nH]c3ccc(O)cc23)cc1 | HIV-2 | viral replication |  |  | EC50 | 0.35 ± 0.09 µM
Fc1cccc(COc2ccc(Nc3ncnc4ccc(-c5ccc(N6CCNCC6)cc5)cc34)cc2Cl)c1 | Leishmania major | parasite growth, resazurin |  | promastigote | EC50 | > 15 µM
O=C(CSc1cccc[n+]1[O-])c1ccccc1Br | Mus musculus | gene silencing, high-content imaging | LDR reporter GFP cells | retest, mean of two runs | EC50 | 15.8 µM
CN(C)S(=O)(=O)c1ccccc1-c1ccc2ncnc(Nc3ccc(OCc4cccc(F)c4)c(Cl)c3)c2c1 | Leishmania major | parasite growth, resazurin |  | promastigote | EC50 | 2.8 µM
C[n+]1cc(/C=N/NC(=O)c2cc(C(=O)N/N=C/c3cc4ccccc4[n+](C)c3)ncn2)cc2ccccc21 | hp2 hairpin duplex DNA | FRET melting |  | 1 µM, together with: ds26 10 µM | ΔTm | 0.7 ± 0.2 °C
Oc1c(/N=N/c2ccccn2)ccc2ccccc12 | Mus musculus | gene silencing, high-content imaging | LDR reporter GFP cells | confirmation, mean of two runs | EC50 | 31.6 µM
Fc1cccc(COc2ccc(Nc3ncnc4ccc(-c5cccc(N6CCCCC6)c5)cc34)cc2Cl)c1 | Leishmania major | parasite growth, resazurin |  | promastigote | EC50 | > 15 µM
Cc1ccc(C(C)C)c(OCc2ccc(C(=O)N/N=C/c3cccc(O)c3O)cc2)c1 | Mus musculus | gene silencing, high-content imaging | LDR reporter GFP cells | retest, mean of two runs | EC50 | 1.58 µM
Cc1[nH]c2ccccc2c1CC(=O)N[C@@H](Cc1ccccc1)C(=O)N(C)c1ccccc1 | HIV-2 | viral replication |  |  | EC50 | 2.2 ± 0.5 µM

Some of these lines once more:
SMILES | target or system | test | system | setting | endpoint | result
O=C(N/N=C/c1cc[n+](Cc2ccccc2)c2ccccc12)c1cccc(C(=O)N/N=C/c2cc[n+](Cc3ccccc3)c3ccccc23)c1 | MYC parallel G4 DNA | FRET melting |  | 1 µM, DNA 0.2 µM | ΔTm | 6.5 ± 0.1 °C
